Results gathered from unrelated publications.
Parts stem from different laboratories: compare values within a part only. Substitutions count along the parent as printed.

Set 1
Target: RNA binding protein fox-1 homolog 2, RRM domain, GST-SBP tag (RBFOX2, Homo sapiens, UniProt O43251-10, residues 100-194)
Method: RNA Bind-n-Seq
Molecule type: RNA
Sample: in vitro
Concentration: 365 nM
Setting: natural RNA segment, single round, ends assumed
Relative to: no-protein control
Reading: higher = stronger binding
Construct (chain): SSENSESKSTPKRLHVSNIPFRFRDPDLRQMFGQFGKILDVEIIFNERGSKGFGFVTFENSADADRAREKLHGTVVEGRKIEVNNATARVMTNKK
`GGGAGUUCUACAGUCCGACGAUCACAGAGCAACCCAGGUUAAACACAGCCCAUGCACAAAGCCACAGGCUAAAUCCUGUGGAAUUGUUUUUAAUGACUGAAUUUAACCAUUUUCAUAGUUGGUUCCUGGAGGUUGGAAUUCUCGGGUGCCAA` — result for “RBNS enrichment (R)”: 0.251.
`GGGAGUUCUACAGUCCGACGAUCAAUGUAAUAUUAAAAUUCCAAGUAGGGGUAGCCACAGGUGAGAACAAAGGCCUUCAUGGGAAGCUUGCACGAGCAUCUCAAGGUGGCUGGGCAUAGCAGAGUUCAACGAGUGGAAUUCUCGGGUGCCAA` — result for “RBNS enrichment (R)”: 1.79.
`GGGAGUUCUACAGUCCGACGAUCAAUCCAGAAUCCCUGGUCUUGAGUCCCCAGAACUUUGCCUCUUGACUGUCCCUUCUCUUCCUACCUCCAUCCAUGGAAAAUUAGUUAUUUUCUGAUCCUUUCCCCUGCCUUGGAAUUCUCGGGUGCCAA` — result for “RBNS enrichment (R)”: 0.661.
For `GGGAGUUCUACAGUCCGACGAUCUCCCCUAGUAGAAGCAGGUUCUUGGAAGUUACAAUUUAAGGUACCCCCAAAAAGUUGGAAAUAAAAGGAAACAAAUUUGAACAACGAAGCACCCUGUGACAUGCCGACGCUGGAAUUCUCGGGUGCCAA`, “RBNS enrichment (R)” read 0.279.
`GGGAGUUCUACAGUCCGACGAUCUGUGGUGCUUACACACACCCAGUUGUCUCCACAGCUCUGAUACCUUUGCCUUCUGUUCUCCUCUCUAGCAUAAGACUUUGGCUUCUGCCUUAAGGUUUUCCUAAGGAAUUUGGAAUUCUCGGGUGCCAA` — result for “RBNS enrichment (R)”: 0.372.
Under “RBNS enrichment (R)”, `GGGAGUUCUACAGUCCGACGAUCGCCCAGUCCCAGUACUGCCAUCUUUGCAUCCACCCCUGCAAGUCUCCAGAGGGCUUCCUGCCACAGAAGUGCUGCCAAGCAGAAGAACCUGUGCCAACUGUGGAGUGGGGUGGAAUUCUCGGGUGCCAA` is recorded as 0.466.
`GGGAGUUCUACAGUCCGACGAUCCCUGGUGACCAGGGCAGUAGGCGUAAUUAAGCAACAAUCGAUCUUCCUUCAGGAGAGCUUGUCACUUCCUUCUUAACGCAGUGGUUCCUAUCUCAGGGAUACUGGACUUGUGGAAUUCUCGGGUGCCAA`: “RBNS enrichment (R)” 0.219.
For `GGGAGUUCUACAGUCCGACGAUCUUCCAAUACUCUUUUAAAAAGCGUGUCUGCCCUCUCUUACUUCUAUGUAUUUGUUUAUCGACACACUCACCCUUUCUGAGAUAGCAUUUUGCUCCCUUGAUCCCCCCCUUUGGAAUUCUCGGGUGCCAA`, “RBNS enrichment (R)” read 0.622.
Under “RBNS enrichment (R)”, `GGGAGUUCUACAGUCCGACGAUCCUGAGCUCAGAUCCAGCUUGCAACUAAUCCUUCUAUCAUCUAACAUGCCCUACUUGGAAAGAUCUAAGAUCUGAAUCUUAUCCUUUGCCAUCUUCUGUUACCAUAUGGUGUGGAAUUCUCGGGUGCCAA` is recorded as 0.573.
`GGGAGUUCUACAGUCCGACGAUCCAGGUGCCUGGGGCUGGCUGCAGACGGUGUGGUUGGGGGUGGGAGGUGAGCUAGACCCAACCCUUAGCUUUUAGCCUGGCUGUCACCUUUUUAAUUUCCAGAACUGCACAUGGAAUUCUCGGGUGCCAA`: “RBNS enrichment (R)” 1.41.
For `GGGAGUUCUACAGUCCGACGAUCUUCCUUACACUUUUUUUCUGAAUAAGUCUCUCAUAAUGAGUGCAGUGUCAGACUGUGCCUACUCUGAUGGUAUGUGCCAUUUGUAAAAUAAAAUAGAGCAGAAAAACACAUGGAAUUCUCGGGUGCCAA`, “RBNS enrichment (R)” read 0.346.
`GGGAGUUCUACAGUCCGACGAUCCCAUGCUCCUCUCAUGGGUUUCUUCCCACCUAGCCAGUGCCUUCAUUUGCUUGUUGUACAGUUUCUUGUAGUUUAUUUUUUAAUAGAUUUGAAUAAAACCUAAAUAGCGCUGGAAUUCUCGGGUGCCAA`: “RBNS enrichment (R)” 2.22.

Set 2
Target: Prothrombin, mature alpha-thrombin (F2, Homo sapiens, UniProt P00734)
Method: aptamer microarray, sandwich
Molecule type: DNA with 2'F-ANA
Sample: in vitro
Concentration: 200 nM
Setting: whole 15-mer aptamer, many near background
With: Cy3 exosite-II aptamer, 400 nM
Reading: higher = stronger binding
Oligonucleotide: GGTTGGTGTGGTTGG
`2'F-ANA at 5 6 13 14`: “mean fluorescence intensity” 42.1 a.u.
Under “mean fluorescence intensity”, `2'F-ANA at 1 2 3 8 12 14` is recorded as 108 a.u.
Under “mean fluorescence intensity”, `2'F-ANA at 1 3 4 5 7 10` is recorded as 45.9 a.u.
For `2'F-ANA at 1 3 4 6 7 8 9 14`, “mean fluorescence intensity” read 83.5 a.u.
`2'F-ANA at 3 5 7 8 13` — result for “mean fluorescence intensity”: 118 a.u.
For `2'F-ANA at 2 4 7 8 10 11`, “mean fluorescence intensity” read 96.8 a.u.
`2'F-ANA at 1 2 3 4 6 8 12 14 15`: “mean fluorescence intensity” 102 a.u.
`2'F-ANA at 4 5 7 8 10 11 12 13 14 15`: “mean fluorescence intensity” 75 a.u.
`2'F-ANA at 4 5 6 9 10 11 12 13`: “mean fluorescence intensity” 46.1 a.u.
`2'F-ANA at 1 3 6 7 10 12 13 14 15` — result for “mean fluorescence intensity”: 64.3 a.u.
`2'F-ANA at 2 3 6 9 12 13 14`: “mean fluorescence intensity” 363 a.u.
`2'F-ANA at 1 3 4 5 7 8 10 11 14` — result for “mean fluorescence intensity”: 48.7 a.u.
Under “mean fluorescence intensity”, `2'F-ANA at 1 3 4 8 9 11 12` is recorded as 355 a.u.
`2'F-ANA at 3 4 7 9 10 11 13`: “mean fluorescence intensity” 250 a.u.
For `2'F-ANA at 2 4 6 11 14 15`, “mean fluorescence intensity” read 82.3 a.u.
Under “mean fluorescence intensity”, `2'F-ANA at 4 12 13 14` is recorded as 118 a.u.
`2'F-ANA at 3 5 8 10 11 12 13 14` — result for “mean fluorescence intensity”: 54.7 a.u.
For `2'F-ANA at 1 2 3 6 7 9 10 11 12 14`, “mean fluorescence intensity” read 68 a.u.
For `2'F-ANA at 1 2 4 6 7 9 10 11 14 15`, “mean fluorescence intensity” read 51.6 a.u.
For `2'F-ANA at 2 5 7 8 10 12 13`, “mean fluorescence intensity” read 48.5 a.u.
For `2'F-ANA at 1 3 6 9 12 13 14 15`, “mean fluorescence intensity” read 93.5 a.u.
`2'F-ANA at 4 5 8 9 10 11 14 15` — result for “mean fluorescence intensity”: 84.2 a.u.
Under “mean fluorescence intensity”, `2'F-ANA at 3 8 9 10 13 14` is recorded as 409 a.u.
`2'F-ANA at 1 2 4 6 7 8 9 11 13 14` — result for “mean fluorescence intensity”: 68.4 a.u.

Set 3
Target: ABI1, truncated, D143A, DHFR fusion (Arabidopsis thaliana)
Method: DHFR PCA, deep sequencing
Sample: yeast
Setting: methotrexate growth selection, single substitutions
With: (+)-ABA 2500 µM
Relative to: wild-type fitted maximum
Reading: higher = stronger binding
Starting sequence: PYL1, truncated, DHFR fusion (Arabidopsis thaliana); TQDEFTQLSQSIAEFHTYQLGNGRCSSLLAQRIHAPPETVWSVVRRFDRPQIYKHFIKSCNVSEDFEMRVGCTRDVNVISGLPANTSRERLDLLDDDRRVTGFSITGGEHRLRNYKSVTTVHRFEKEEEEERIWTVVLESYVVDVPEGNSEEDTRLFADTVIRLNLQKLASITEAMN; partner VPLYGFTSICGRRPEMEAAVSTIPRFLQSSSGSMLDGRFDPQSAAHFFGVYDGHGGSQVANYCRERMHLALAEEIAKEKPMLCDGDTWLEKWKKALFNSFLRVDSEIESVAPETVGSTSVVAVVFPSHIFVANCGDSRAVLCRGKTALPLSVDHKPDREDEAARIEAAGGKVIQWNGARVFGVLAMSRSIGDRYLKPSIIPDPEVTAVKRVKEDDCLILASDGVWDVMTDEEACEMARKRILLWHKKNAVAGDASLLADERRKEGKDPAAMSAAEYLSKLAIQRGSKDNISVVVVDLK
`A170W`: “relative binding score” 64.1%.
`N165L`: “relative binding score” 2.27%.
For `T135P`, “relative binding score” read 18.6%.
`Q2A`: “relative binding score” 99.7%.
Under “relative binding score”, `E128R` is recorded as 103%.
Under “relative binding score”, `V118A` is recorded as 93.1%.
Under “relative binding score”, `Y18G` is recorded as 92.2%.
`R99H` — result for “relative binding score”: 103%.
Under “relative binding score”, `L29K` is recorded as 91.3%.
Under “relative binding score”, `T135H` is recorded as 3.72%.
Under “relative binding score”, `P83V` is recorded as 51%.
`V145F` — result for “relative binding score”: 74.3%.
Under “relative binding score”, `S87N` is recorded as 18.8%.

Set 4
Target: Sal-like protein 4, full length isoform A (SALL4, Homo sapiens, UniProt Q9UJQ4, residues 1-1053)
UniProt Q9UJQ4, sequence (whole entry, looked up): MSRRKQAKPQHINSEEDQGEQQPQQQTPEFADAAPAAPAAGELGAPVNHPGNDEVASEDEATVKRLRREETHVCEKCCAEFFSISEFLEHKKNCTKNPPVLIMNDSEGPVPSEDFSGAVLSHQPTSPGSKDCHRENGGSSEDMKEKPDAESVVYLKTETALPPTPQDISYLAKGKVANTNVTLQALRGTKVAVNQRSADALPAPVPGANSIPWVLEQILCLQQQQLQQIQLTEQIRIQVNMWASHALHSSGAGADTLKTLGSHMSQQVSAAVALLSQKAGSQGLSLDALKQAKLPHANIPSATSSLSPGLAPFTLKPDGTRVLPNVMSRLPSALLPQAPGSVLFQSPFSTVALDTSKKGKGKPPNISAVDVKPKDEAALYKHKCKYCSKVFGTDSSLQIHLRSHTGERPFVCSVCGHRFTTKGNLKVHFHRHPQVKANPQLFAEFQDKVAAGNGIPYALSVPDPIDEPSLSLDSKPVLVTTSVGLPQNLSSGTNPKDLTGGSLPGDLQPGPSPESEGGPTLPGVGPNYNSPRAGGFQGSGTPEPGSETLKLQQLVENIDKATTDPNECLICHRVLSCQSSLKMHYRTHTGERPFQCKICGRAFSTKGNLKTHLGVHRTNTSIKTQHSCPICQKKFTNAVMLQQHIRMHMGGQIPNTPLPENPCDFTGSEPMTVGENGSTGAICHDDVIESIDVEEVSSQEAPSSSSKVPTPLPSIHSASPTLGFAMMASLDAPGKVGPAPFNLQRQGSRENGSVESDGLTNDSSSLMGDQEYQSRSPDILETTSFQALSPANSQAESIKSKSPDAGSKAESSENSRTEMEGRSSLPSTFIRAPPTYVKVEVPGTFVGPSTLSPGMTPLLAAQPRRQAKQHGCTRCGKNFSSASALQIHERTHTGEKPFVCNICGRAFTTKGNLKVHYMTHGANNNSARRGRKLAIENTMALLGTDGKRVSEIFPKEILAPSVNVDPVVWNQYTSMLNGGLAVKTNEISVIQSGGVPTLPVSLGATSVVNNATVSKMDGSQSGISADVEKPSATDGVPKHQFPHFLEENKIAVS
Method: universal PBM
Molecule type: double-stranded DNA, one strand shown
Sample: in vitro
Concentration: 600 nM
Setting: 8-mer, flanks averaged, mean of replicates
Reading: higher = stronger binding
`CCCGTTCA` has an E-score of -0.11.
`CATTTTTA` gave an E-score of 0.247.
For `TACTGGAA`, the E-score was 0.13.
For `CAGAACCG`, the E-score was -0.23.
`AGCTGAAA` has an E-score of 0.181.
The E-score of `CTAGGACC` is reported as -0.305.
The E-score of `AACTAAGG` is reported as 0.117.
For `ATGGCCGG`, the E-score was -0.189.
`AGACTTAA` gave an E-score of 0.0897.
With `TACGTCCA` the E-score was -0.04.
The E-score of `ACCTACTA` is reported as 0.163.
`TACCATAA` has an E-score of 0.33.
`AAATCATC` has an E-score of 0.145.
`GCGGCAGA` gave an E-score of -0.282.
With `CTGAGGCC` the E-score was -0.321.
With `CGACATGC` the E-score was -0.0127.
With `CCTGAGGA` the E-score was -0.0468.
For `ACACTCAA`, the E-score was 0.193.
With `AGAGGCCG` the E-score was -0.328.
`CTTCTAAA` has an E-score of 0.0785.
With `AAGAAGCG` the E-score was -0.127.
For `CGTAGATA`, the E-score was 0.14.
`ATCCGACG` gave an E-score of -0.12.
`AAAAAGCT` gave an E-score of 0.198.
`AACCACGG` has an E-score of -0.251.

Set 5
Target: Histone acetyltransferase KAT6A, both winged helices, GST fusion (KAT6A, Homo sapiens, UniProt Q92794, residues 1-181)
Method: protein binding microarray
Molecule type: double-stranded DNA, one strand shown
Sample: in vitro
Concentration: not given
Setting: 8-mer, flanks averaged, mean of 2 arrays, mostly near background
Relative to: not given
Reading: higher = stronger binding
Target sequence (chain): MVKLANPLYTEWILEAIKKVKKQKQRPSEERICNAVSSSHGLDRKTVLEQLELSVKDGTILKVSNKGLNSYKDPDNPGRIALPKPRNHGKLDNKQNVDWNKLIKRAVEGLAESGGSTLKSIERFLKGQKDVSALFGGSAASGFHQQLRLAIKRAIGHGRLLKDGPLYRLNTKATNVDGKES
`GTGACCTA` gave an E-score of -0.0843.
For `ACATGGGC`, the E-score was 0.0363.
The E-score of `TAGGTCCA` is reported as -0.132.
For `ATCATCAT`, the E-score was -0.043.
`GCCTTCAA` gave an E-score of -0.0376.
`GCATCCCA` has an E-score of -0.119.
With `GACTGAGA` the E-score was -0.17.
For `GACGCCTA`, the E-score was 0.0825.
`GTTCCTCA` has an E-score of -0.0167.
`CCCGAAGG` has an E-score of 0.00257.
The E-score of `ACAACGAT` is reported as 0.0979.
`CGAACCCG` gave an E-score of 0.262.
`CTTCGCCA` has an E-score of 0.0744.
The E-score of `AACCTATC` is reported as -0.0987.
`CATTGAGC` has an E-score of 0.0334.
For `AGGCCAGC`, the E-score was -0.122.
For `GCTTGCGA`, the E-score was 0.196.
`GTATAGCA` gave an E-score of -0.0537.
The E-score of `CATAAGGA` is reported as -0.116.
For `ATGTGACG`, the E-score was -0.128.
For `AGATTCTA`, the E-score was -0.103.
`GCTCGTCC` gave an E-score of -0.0658.
The E-score of `ATGAATAG` is reported as -0.0724.
